Measured values from different studies.
Numbered parts are unrelated; each lists some results of a single study.

Study 1 — technique: RNA Bind-n-Seq; form: RNA; medium: in vitro; tested at: not given; baseline: input RNA pool; reading: higher = stronger binding; measurement: bound/input enrichment
Target: RING finger protein unkempt homolog, zinc fingers 1-6, GST-SBP tag (UNK, Homo sapiens, UniProt Q9C0B0, residues 30-357)
Notes: RNA with constant flanks, human and mouse sites, ends assumed
All sequences stand within: GGGAGUUCUACAGUCCGACGAUC … CAACAGAGGAUUGAGCAUCA
Construct (chain): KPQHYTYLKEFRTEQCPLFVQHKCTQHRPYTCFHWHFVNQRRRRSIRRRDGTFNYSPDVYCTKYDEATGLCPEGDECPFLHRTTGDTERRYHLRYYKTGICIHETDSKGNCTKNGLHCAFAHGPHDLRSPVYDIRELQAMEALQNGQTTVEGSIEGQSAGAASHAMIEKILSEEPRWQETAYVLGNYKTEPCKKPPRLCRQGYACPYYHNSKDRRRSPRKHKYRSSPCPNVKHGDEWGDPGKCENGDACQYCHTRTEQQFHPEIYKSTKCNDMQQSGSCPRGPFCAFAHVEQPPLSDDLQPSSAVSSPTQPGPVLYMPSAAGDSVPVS
AGUAGCUCCGCCUGAAGAACUGUUUGCCAAUUCUGCUGAAGGAGAAUUCAGUGCACUCUGUAGCUAUCUAUCUUUACCCACAAAUUUGUUCCUGCUUUUCCAGGAAUAUUGGGAUACCAU: 0.375 ratio
ACACCCUUGGCCAGCCUUUCUCCUGAAUAUCAGCUACCAAGAUCAGUACCAGUGGUGCCGUCUUUUGUAGCCAAUGACAGAGCAGAUAAAAAUGCUGCUGCCUAUUUUGAGGGUCAUCAU: 0.0878 ratio
UGUGGACAAGGAGACAAAGCAGAUGAGAAAGAUGGUAAGAAAAAGCAUGCCAGCAGCACUUCAGAUUCACAUAUCUUGGACUAUUAUGAAAAUCCAGCCAUCAAAGAAGAGAUAUCAACC: 0.161 ratio
CAGGGAGUGGGUGACAUAGAGCAUUCUAUGCCUUUGACAUUGUCAUAGGAUAAGCUGUGUUAGCACUUCCUCAGGAAAUGAGAUUGAUUUUUACAAUAGCCAAUAACAUUUGCACUUUAU: 0.516 ratio
UUAAACUAAAUGGAACCAUGUGCUAAUUUUACAGUGACUGACCUGUACUGAUUACCACUGUAGUUUGGUAUUUCCCUUUACUUUGGUGGCCUGCUUCCCUCAUGCCCUGGAGUACAGCUC: 0.138 ratio
AAAAGAAAUUUUUUAAAAAACCCCUCAGUUUAACAGAUUUUGCAAUCCAUCCAGCCUUGUGGUUUUAUGCCUGCUCUUAAGUGAACAUUGGCGUCGCUCAAAGAAGGCUCAAUGUUGAGC: 0.448 ratio
GACAUGGAAAGCUAUGAGCGACAGAGAGAGAAGCAUGGAGAAGAUUUUUUCCCAACAUCCAACAGUCUUCUCCAUGGGACGCACGUGCCUUCCUCAGAGGAAAUUGACAGAAUGGUUUUA: 0.186 ratio
UAAAUGUUCCCGCUGUGUCCCUGGAUAUGGAAUAAGCAGGUAUAAAAAAUAUUUUAAUUAUAGUUUUGUUAUAAAUAUAACUUAUGAGAAAAAAAUUUGAUAGGAAUAAUACUGUAUAUU: 6.4 ratio
GUCAGGGUCGCCAGCGCCUCAGCUCUGUGGAGGAGCAGCAGUAGUCGGAGGGUGCAGGAUAUUAGAAAUGGCUACUCCCCAGUCAAUUUUCAUCUUUGCAAUCUGCAUUUUAAUGAUAAC: 0.42 ratio
GUAGACAAAGACCAGCCUUCCAUUUUAAACUCCUGUGAAGACCCAGUUCCAGGGAUGUUGUUUUUUUUGCCACCUGGUCAGCACUUGUCAGACUAUUCCCAGUUGAAUGAAAGCACAACA: 0.261 ratio
CCUCCUUUAUUAAUUUUCUUCCAAAGACAAGGGAAGGCCGGCGGACGACCUGUGGGCCCUUUAGUUACCAAGUCGCAGUGGUACGCGGAGGACCGAGACUAGGAACGGACCUUGACCUUU: 0.411 ratio

Study 2 — technique: Spec-seq; form: double-stranded DNA, one strand shown; medium: in vitro; tested at: not given; notes: whole probe, mean of replicates; baseline: not given; reading: lower = stronger binding; measurement: relative binding energy; all sequences stand within: GAGTCGTCTCGTCAGCACA … CCGTAGAGCACTCAGGTC
Target: POU domain, class 5, transcription factor 1, POU domain (Pou5f1, Mus musculus, UniProt P20263, residues 131-289)
Sequence of UniProt P20263 (131-289, looked up): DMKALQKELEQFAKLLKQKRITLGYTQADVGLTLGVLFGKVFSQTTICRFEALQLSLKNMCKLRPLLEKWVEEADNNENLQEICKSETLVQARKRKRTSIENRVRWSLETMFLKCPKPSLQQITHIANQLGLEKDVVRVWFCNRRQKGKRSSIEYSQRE
CCTTAAT: 0.612 ln ratio
TGCTTAC: 0.165 ln ratio
TGCTGTG: 0.883 ln ratio
TTGAGAT: 0.141 ln ratio
TGCGGAC: 0.366 ln ratio
TGTCTAT: 0.641 ln ratio
CTTTAAT: 0.274 ln ratio
TGCCAAG: 0.706 ln ratio
TGCTGGC: 0.756 ln ratio
TCGAGAT: 0.555 ln ratio
TGAGCAT: 0.33 ln ratio
TGCTTGC: 0.61 ln ratio
TTCCTAT: 0.275 ln ratio
TGCGCAC: 0.192 ln ratio

Study 3 — technique: RNA Bind-n-Seq; form: RNA; medium: in vitro; tested at: 365 nM; baseline: no-protein control; reading: higher = stronger binding; measurement: RBNS enrichment (R)
Target: RNA binding protein fox-1 homolog 2, RRM domain, GST-SBP tag (RBFOX2, Homo sapiens, UniProt O43251-10, residues 100-194)
Notes: natural RNA segment, single round, ends assumed
All sequences stand within: GGGAGUUCUACAGUCCGACGAUC … UGGAAUUCUCGGGUGCCAA
Construct (chain): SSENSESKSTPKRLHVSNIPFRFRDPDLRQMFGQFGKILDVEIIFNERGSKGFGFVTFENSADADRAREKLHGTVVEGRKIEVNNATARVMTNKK
AUUUUUAUUUUGCAUACUGAGGGUAUUUGGGGUGGGGUUGUUUUUUGAGAUGUGUAAUUCUUUUAUGGAGUUUUUAAAAAGAAUUUUCAUAUUGUUUUUUCUAACAUGGC: 2.61
CUAAAUGAAGGUUAAAACAUGCUUAAGAAAAAUGCACUGAUUUCUGCAUUAUGUGUACAGUAUUGGACAAAGGAUUUUAUUCAUUUUGUUGCAUUAUUUUGAAUAUUGUC: 0.907
UAUUACCAUAGUGCGAUGUUGUUUUGUGCUAUUUUGAACAAUUAAAAAGACUUUUUUUGAAAUAACCUCUGGUAUUUACCCGUGUGUCAAGAGUGUCUUGUGAGCCAGGC: 0.308
GUAUCUGUAUCUCUCUCUCUUUUUGGAGGUGCUUAAGCAGAAGCAUUAACUUCUCUGGAAAGGGGGGAGCUGGGGAAACUCAAACUUUUCCCCUGUCCUGAUGGUCAGCU: 0.202
UAUAGUCCUUCAAUAGGAAAUUGUAAUUAAAAUAUAAUUUUAUAGAACCAUUUUUAUGUAAUCUGAUUUGAAUGUUAUAGUUGAUAAUAAUAAAAUCACUUACUUGGUUG: 0.607
GUUGAAGCUUGAUUUGACCACGCUGUAAUCUCCAGCCUACUGCCAAGUGCAGGGGCCUCCCUACGUUCUGUACCCUAAAUCCCAAGGUCAGGUUGGGGACCAACCUUGGG: 1.11
AACAAAUGCAAAUUUUCCCCGUUUGCCCUACGCCCCUUUUGGUACACCUAGAGGUUGAUUUCCUUUUUCAUCGAUGGUACUAUUUCUUAGUGUUUUAAAUUGGAACAUAU: 0.385
UUGGUCACUGUAAAUAUGAAUUGUGACCCCAUCCCUUCCCGCAUGAGCCCAGUGAGUCCCAGCAGCUAUCAGCCUCCCUGAACGAUUAAACAGCUCCUCCCAGCAUUUGC: 6.38
UCUGAAUGGAUGUGUUACCAGAAGCAUUUUAGCUACAGCCUAGAAAAUGACAUUGUGAACACAGUAUUAUUGUGGGAAGAGGGCAUUUGGAUUUCUCAAUGUUUGUGAUA: 2.74
UUUGUUGCUUGUUGAGUAAGCAGCUGGCACGCCUGUGGAGGAGGAGGCCUUGCCUCAACGUUCCUGGGUCAGUCCCGAGUUCUCCCAAUGGCUUUGUGAAUGUAAAUAAG: 1.52
CUAUUUAAAAGAAAGAAAAUGUAUUUUCCAUAGUAGUUUUGUGUAAAUCGUAUGAUUCACCUCAUCUUUAAUAUGCAUUGAAAUAGGUAAUACUAGAUGCAAGUGUUUCC: 0.524
UUAUCAUAUUGAACAUGUAGUAUCCCAAUACUCUCAACAGUGGAUAAUUAUGAGUAAACCCGGUCCUUUCGAUGUUUAGAGUAAGCAGAGGCCCACAGUGGAGGCUUACC: 0.783

Study 4 — technique: protein-binding microarray; form: double-stranded DNA, one strand shown; medium: in vitro; tested at: 2200 nM top; notes: 60-bp whole probe; added: salmon DNA 0.4 mg/ml; baseline: random background probes; reading: higher = stronger binding; measurement: fitted relative affinity; all sequences stand within: GCCTAGCAC … GTCTTGATTCGCTTGACGCTGCTG
Target: Interferon regulatory factor 7, full length, phosphomimetic (IRF7, Homo sapiens, UniProt Q92985, residues 1-503, S471D/S472D/S475D/S476D/S477D/S483D/S484D/S487D)
Target sequence (chain): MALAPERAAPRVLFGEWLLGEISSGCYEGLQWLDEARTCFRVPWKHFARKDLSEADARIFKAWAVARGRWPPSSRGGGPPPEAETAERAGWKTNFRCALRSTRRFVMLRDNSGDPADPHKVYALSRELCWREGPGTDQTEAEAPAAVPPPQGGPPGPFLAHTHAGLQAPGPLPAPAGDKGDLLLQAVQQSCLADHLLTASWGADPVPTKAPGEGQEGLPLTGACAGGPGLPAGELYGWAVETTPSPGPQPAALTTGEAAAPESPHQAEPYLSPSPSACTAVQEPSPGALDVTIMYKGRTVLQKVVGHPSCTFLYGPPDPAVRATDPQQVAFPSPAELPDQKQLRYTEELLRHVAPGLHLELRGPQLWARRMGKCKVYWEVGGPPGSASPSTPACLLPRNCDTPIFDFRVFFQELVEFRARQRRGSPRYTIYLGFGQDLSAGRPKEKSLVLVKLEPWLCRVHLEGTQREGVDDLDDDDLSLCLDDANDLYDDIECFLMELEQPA
TTAGGACTGGACACTGGATTAGTGCTA: -0.727 z-score
TTAGGTCTCCTACTGCATTAGTGCTAG: 0.557 z-score
GACGGTTCCAGTTTCGAGACGTGCTAG: 4.23 z-score
GACGGTATCCTACTGCTGCCGTGCTAG: 0.301 z-score
TCATGTTGCAAATATTGCACTGTGCTA: 0.656 z-score
TCACTCTCTCTATTCTGTGGGTGCTAG: 2 z-score
TCATTTTTACCTGTGGTACTGTGCTAG: 1.83 z-score
TTAGGTTTGGGGTTTCGGTTAGTGCTA: 3.71 z-score
TTAGGTCTCGGTCTCGGTTCGTGCTAG: 1.53 z-score
TTAGGTTTACTTTCCCTTTAGTGCTAG: 6.73 z-score
GAAGGTTTCGGGTTTCGGGACGTGCTA: 9.67 z-score
GACGGTATCCCTATCCTGACGTGCTAG: 1.53 z-score
GACGGTCTCCTTCTCCTGGCGTGCTAG: 0.81 z-score
GGAGGTCTGGATGTGCCGCGGTGCTAG: -1.11 z-score
TTAGATTTCGGGTTTGGATTAGTGCTA: 4.27 z-score
GACGAACTGACTTTCGAGACGTGCTAG: 2.92 z-score
GACGGACTGCGGACTGGGGACGTGCTA: -0.953 z-score
TTAGGTATCGGGTTTCGGCTAGTGCTA: 1.67 z-score
TTTGCTCTGTGCATAGGTCTGTGCTAG: 0.542 z-score
AGATTTATCAAATGTGGGATTGTGCTA: -0.405 z-score
TTAGGACTGCTTCTCCATTAGTGCTAG: 0.733 z-score
GACGGTATCGACTATCGGGAGGTGCTA: -0.39 z-score
GACGGTTTCGGGACTGCGGACGTGCTA: 3.83 z-score
TTAGGTTTCGGCATCGGTTAGTGCTAG: 3.13 z-score
GACTGTATCCTTTTCCTGACGTGCTAG: 1.76 z-score

A few entries again (study 2):
TGCTGGC: 0.756 ln ratio
TCGAGAT: 0.555 ln ratio
TGAGCAT: 0.33 ln ratio
TGCTTGC: 0.61 ln ratio
